Assay results pooled from the literature.
Each line is one published result; not all experiments were run side by side.

Structure (SMILES)	organism	test	test system	setting	MIC
CC[C@H](C)[C@H](NC(=O)[C@H](CC(C)C)NC(=O)[C@H](CCC(=O)O)NC(=O)[C@H](CO)NC(=O)[C@H](CCCNC(=N)N)NC(=O)[C@@H](N)CO)C(=O)N[C@H](C(=O)N[C@@H](CCCNC(=N)N)C(=O)N[C@@H](CCC(N)=O)C(=O)N[C@@H](CCCNC(=N)N)C(=O)N[C@@H](CC(C)C)C(=O)N[C@@H](Cc1ccccc1)C(N)=O)C(C)C	Candida parapsilosis	broth microdilution	RPMI MOPS-buffered	–	> 400 µg/mL
[O-][N+]1=C(c2ccccc2)C2=NCCN2c2ccccc21	Porphyromonas asaccharolytica	–	–	–	≤ 0.06 µg/mL
OB(O)c1cnn(-c2cccc(Cl)c2)c1	Klebsiella aerogenes	bacterial growth	AmpC-overproducing clinical isolate	cefotaxime alone	8 µg/mL
O=[N+]([O-])c1ccc(C2=[N+]([O-])c3ccccc3N3CCCN=C23)cc1	Finegoldia magna	–	–	–	1 µg/mL
O=C(NCc1nc(-c2ccc(Br)cc2)c[nH]1)Nc1ncc(Sc2ccccn2)s1	Bacteroides fragilis	broth microdilution	ATCC 25285	without verapamil	> 128 µM
CCCCCCCCCCCCCC[S+]([O-])CC1OC(OC2C(N)CC(N)C(OC3OC(CN)C(O)CC3N)C2O)C(O)C(N)C1O (mixture of isomers)	Enterococcus	–	vancomycin-resistant	–	37.5 µg/mL
COc1ccc(C2=[N+]([O-])c3ccccc3N3CCCN=C23)cc1	Finegoldia magna	–	–	–	1 µg/mL
CO[C@H]1/C=C/O[C@@]2(C)Oc3c(C)c(O)c4c(c3C2=O)C2=NC3(CCN(CC(C)C)CC3)NC2=C(NC(=O)/C(C)=C\C=C\[C@H](C)[C@H](O)[C@@H](C)[C@@H](O)[C@@H](C)[C@H](OC(C)=O)[C@@H]1C)C4=O	Mycobacteroides abscessus	–	ATCC 19977 arr knockout	–	0.04 µM
S=C(NCc1ccccn1)NCc1ccccn1	Agrobacterium	microbial growth, well diffusion	–	–	4.02 µg/mL
CC[C@H](C)[C@H](NC(=O)[C@H](CC(C)C)NC(=O)CCNC(=O)[C@H](CO)NC(=O)[C@H](CCCNC(=N)N)NC(=O)[C@@H](N)CO)C(=O)N[C@H](C(=O)N[C@@H](Cc1c[nH]cn1)C(=O)N[C@@H](CCC(N)=O)C(=O)N[C@@H](CCCNC(=N)N)C(=O)N[C@@H](CC(C)C)C(=O)N[C@@H](Cc1ccccc1)C(N)=O)C(C)C	Candida parapsilosis	broth microdilution	RPMI MOPS-buffered	–	> 400 µg/mL
CC[C@H](C)[C@H](NC(=O)[C@H](Cc1c[nH]c2ccccc12)NC(=O)[C@H](CCCNC(=N)N)NC(=O)[C@H](CCC(N)=O)NC(=O)[C@@H](NC(=O)[C@H](Cc1c[nH]c2ccccc12)NC(=O)[C@H](CCCNC(=N)N)NC(=O)[C@H](CCCNC(=N)N)NC(=O)[C@H](CCSC)NC(=O)[C@H](C)NC(=O)[C@H](CCCCN)NC(=O)[C@@H]1CCCN1C(=O)[C@H](C)N)C(C)C)C(=O)N[C@@H](CCCNC(=N)N)C(=O)N[C@@H](CCCNC(=N)N)C(=O)N[C@@H](Cc1c[nH]c2ccccc12)C(=O)N[C@@H](CCCNC(=N)N)C(=O)N1CCC[C@H]1C(=O)N[C@@H](CCCCN)C(=O)N[C@H](C(=O)N[C@@H](Cc1ccccc1)C(=O)N[C@@H](CCC(N)=O)C(=O)N[C@H](C(=O)N[C@H](C(=O)NCC(=O)N[C@@H](CO)C(=O)N[C@@H](CO)C(=O)N[C@@H](C)C(N)=O)[C@@H](C)O)C(C)C)C(C)C	Aspergillus fumigatus	metabolic activity, resazurin	azole-resistant	27 h, 37 °C	5 µM
CC[C@H](C)[C@@H]1NC(=O)CNC(=O)[C@H](CCCCN)NC(=O)[C@H](C)NC(=O)[C@H](CCC(=O)O)NC(=O)[C@H](Cc2ccccc2)NC(=O)[C@H](CO)NC(=O)[C@H](CC(C)C)NC(=O)[C@H](C(C)C)NC(=O)[C@H](CC(=O)O)NC(=O)[C@@H](NC(=O)[C@@H](NC(=O)[C@@H](N)C(C)C)[C@@H](C)O)CSSC[C@@H]2NC(=O)[C@H](CO)NC(=O)CNC(=O)CNC(=O)[C@H](CCCCN)NC(=O)[C@H](CCCCN)NC(=O)[C@H](CCCNC(=N)N)NC(=O)[C@H](CC(C)C)NC(=O)[C@H](C)NC(=O)[C@H]([C@@H](C)CC)NC(=O)[C@@H]3CSSC[C@@H](C(=O)N[C@@H](CCCNC(=N)N)C(=O)N[C@@H](CC(N)=O)C(=O)O)NC(=O)[C@H](C(C)C)NC(=O)[C@H](CSSC[C@H](NC(=O)[C@H](C)NC(=O)[C@H](CO)NC(=O)[C@H](Cc4c[nH]cn4)NC(=O)[C@H](CC(N)=O)NC(=O)[C@H](C(C)C)NC(=O)[C@H](C)NC1=O)C(=O)N[C@@H](C)C(=O)N[C@@H](CC(C)C)C(=O)N[C@@H](Cc1c[nH]cn1)C(=O)N3)NC(=O)[C@H](C(C)C)NC(=O)CNC(=O)[C@H](CC(N)=O)NC(=O)[C@H](CCC(N)=O)NC2=O	Candida parapsilosis	broth microdilution	ATCC 22019	28 °C	10 µM
CC1C(=NOCc2cc(-c3ccc(Cl)cc3)no2)C(C)C(c2ccc(Cl)cc2)OC1c1ccc(Cl)cc1 (centres unmarked)	Aspergillus niger	microbial growth	–	–	25 µg/mL
[O-][N+]1=C(c2ccccc2)C2=NCCCN2c2ncccc21	Porphyromonas asaccharolytica	–	–	–	≤ 0.06 µg/mL
CC[C@H](C)[C@H](NC(=O)[C@@H]1CC(=O)N[C@@H](CO)C(=O)N[C@@H](CC(C)C)C(=O)NCC(=O)N[C@@H](CO)C(=O)N[C@@H](CO)C(=O)N2CCC[C@H]2C(=O)N[C@@H](Cc2ccc(O)cc2)C(=O)N[C@@H](CC(N)=O)C(=O)N1)C(=O)N[C@@H](CC(C)C)C(=O)NCC(=O)N[C@@H](Cc1ccc(O)cc1)C(=O)N1CCC[C@H]1C(=O)N[C@@H](C)C(=O)N[C@@H](CC(C)C)C(=O)N[C@H](C(=O)N[C@H](C(=O)N[C@H](C(=O)N[C@@H](Cc1ccc(O)cc1)C(=O)N1CCC[C@H]1C(=O)O)[C@@H](C)CC)C(C)C)[C@@H](C)CC	Aspergillus niger	–	–	–	> 128 µg/mL
COc1ccc(C2=[N+]([O-])c3ccccc3N3CC(C)(C)CN=C23)cc1	Finegoldia magna	–	–	–	4 µg/mL
CCCCc1ccc(-c2nc(C)c(C(C)=NNC(=N)N)s2)cc1	Staphylococcus aureus	–	three VRSA strains	all strains	0.7 µg/mL
